Measurements collected from several papers.
A part holds a random share of what one study measured.

Sample 1
Target: Replicase polyprotein 1ab, main protease (rep, Severe acute respiratory syndrome coronavirus 2, UniProt P0DTD1)
Read-out: enzyme activity
Mode: inhibitor
Concentration: 20 µM
Notes: primary screen
Quantity: inhibition
CNS(=O)(=O)C[C@H]1CC[C@H](N(C)c2ncnc3[nH]ccc23)CC1: 54.1%
O=C(Nc1cc(C(F)(F)F)ccc1O)Nc1cc(C(F)(F)F)ccc1O: 29%
O=C(CCl)c1ccccc1: 99.9%
N=C(N)S/C=C\C(=O)O: 27.6%

Sample 2
Target: Histone acetyltransferase KAT6A, winged helix 2, GST fusion (KAT6A, Homo sapiens, UniProt Q92794, residues 85-181)
Technique: protein binding microarray
Form: double-stranded DNA, one strand shown
Sample: in vitro
Concentration: not given
Notes: 8-mer, flanks averaged, mean of 2 arrays, mostly near background
Reference: not given
Reading: higher = stronger binding
Quantity: E-score
Residues (chain): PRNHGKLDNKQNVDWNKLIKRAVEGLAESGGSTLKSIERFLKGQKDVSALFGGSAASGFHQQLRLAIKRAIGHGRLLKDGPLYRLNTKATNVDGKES
TATCGTAA: 0.0172
CGAGTGAC: 0.0231
CTTTTCTC: 0.0551
ACTCCGCT: 0.00073
ACAGTGCA: -0.0233
AGGTTCAC: 0.1
ACCCACGG: 0.141
CATAATAG: -0.112

Sample 3
Target: Ras GTPase-activating protein-binding protein 1, full length (G3BP1, Homo sapiens, UniProt Q13283)
UniProt Q13283, sequence (whole entry, looked up): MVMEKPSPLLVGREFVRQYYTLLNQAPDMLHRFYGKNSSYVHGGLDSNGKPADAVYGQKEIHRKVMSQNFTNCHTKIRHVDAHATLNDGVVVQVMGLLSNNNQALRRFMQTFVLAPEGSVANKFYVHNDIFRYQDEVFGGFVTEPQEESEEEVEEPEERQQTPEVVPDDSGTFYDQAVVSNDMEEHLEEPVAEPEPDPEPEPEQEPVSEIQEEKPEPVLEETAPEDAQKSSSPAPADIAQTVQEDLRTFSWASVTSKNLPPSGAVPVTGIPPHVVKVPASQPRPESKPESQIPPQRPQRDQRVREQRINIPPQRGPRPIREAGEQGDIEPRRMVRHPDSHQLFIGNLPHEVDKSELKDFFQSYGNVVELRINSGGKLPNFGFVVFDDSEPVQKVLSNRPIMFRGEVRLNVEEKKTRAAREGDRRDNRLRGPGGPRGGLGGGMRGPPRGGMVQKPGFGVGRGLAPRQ
Technique: RNA Bind-n-Seq
Form: RNA
Sample: in vitro
Concentration: 200 nM
Notes: whole 134-nt RNA, ends assumed
Added: 150 mM KCl
Reference: input library
Reading: higher = stronger binding
Quantity: log2 enrichment
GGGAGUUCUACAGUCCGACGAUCAGUCCUGUGCUACACAUCGUAUGUACCGAAUCGGGAAAAAGGGUUUUUUUGGGAGGGAAAGUAUUAUGUUACGCCGUUCGGAUCUGCACUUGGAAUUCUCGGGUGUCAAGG: 0.0271
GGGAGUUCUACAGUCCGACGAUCUGGCCCUGGUGGCAUGCGGGGAGGAAGAGGUGGCCUCAUGGAUCGGGGUGGUCCCGGUGGAAUGUUCAGAGGUGGCCGUGGUGGAGACAGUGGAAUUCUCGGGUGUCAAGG: -0.107
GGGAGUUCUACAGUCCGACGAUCCUGUGCUACACAUCGUAUGUACCGAAUCGGGAAAAAAAGGGGAAAAAAAGGAAAAAAAGGGAAAGUAUUAUGUUACGCCGUUCGGAUCUGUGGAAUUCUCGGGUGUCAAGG: -0.824
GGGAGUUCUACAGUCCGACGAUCUCGGAGGUGGAUUUUGUUUAUUUUUUUAGCUCAUUUCCAGGGGUGGGAAUUUUUUUUUAAUAUGUGUCAUGAAUAAAGUUGUUUUUGAAAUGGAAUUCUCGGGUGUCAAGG: -0.779
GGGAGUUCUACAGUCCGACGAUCUAACUUUAGAGGAGGAUCUGAUGGAUAUGGCAGUGGACGUGGAUUUGGGGAUGGCUAUAAUGGGUAUGGAGGAGGGCCUGGAGGUGGCAAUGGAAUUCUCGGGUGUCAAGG: 0.739
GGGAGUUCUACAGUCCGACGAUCGUCCUGUGCUACACAUCGUAUGUACCGAAUCGGGGAAAAAGGGAAAAAGGAAAAAGGGAAAGUAUUAUGUUACGCCGUUCGGAUCUGCACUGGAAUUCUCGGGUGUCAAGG: -0.386

Sample 4
Target: RNA binding protein fox-1 homolog 2, RRM domain, GST-SBP tag (RBFOX2, Homo sapiens, UniProt O43251-10, residues 100-194)
Technique: RNA Bind-n-Seq
Form: RNA
Sample: in vitro
Concentration: 365 nM
Notes: natural RNA segment, single round, ends assumed
Reference: no-protein control
Reading: higher = stronger binding
Quantity: RBNS enrichment (R)
Construct (chain): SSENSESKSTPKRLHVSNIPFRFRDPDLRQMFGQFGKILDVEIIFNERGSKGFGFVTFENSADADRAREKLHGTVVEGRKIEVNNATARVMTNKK
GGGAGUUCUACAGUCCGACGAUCACUCGCCAAGUAAGGCUUCGUGCAUAGUGUCUUCAUGUCGCGUAUAGUUGAGCGCGUUCUUAGCAGUUGGCUUCAUGGACAACUCAUUAGUGUUUUGACUUUUCUUACCCUGGAAUUCUCGGGUGCCAA: 0.382
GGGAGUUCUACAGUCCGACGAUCAAUGCUGAUUCUGAUUCUGAGAUCAAUUUGUGGGAAUUUUACAUAAAUCUUUGUUAAUUACUGAGUGGGCAAGUAGACUUCCUGUCUUUGCUUUCUUUUUUUUUUUCUUUUGGAAUUCUCGGGUGCCAA: 1.06
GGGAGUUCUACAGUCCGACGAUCGUUACAUAGCAUUCAUAUAGGAAUGAGCAGAGACAUCUGAGAAGAGUGGGAGCUCAUGGGUGACAGUAAAACUUAGGUGUCUCAGAACUUAACAUUUAGUAAAGUGAUGUUGGAAUUCUCGGGUGCCAA: 0.455
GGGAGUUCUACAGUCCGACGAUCAAGAAAUGGAGCCAAAUCUGCUCUAAGGUGAAUAGAGACUUAUUUUUCUUUAUUAAAGUAUUCUUGUAAGACAGUUUUCUGUGUCAAGUAUUUGUGAAAUCAGAGCUGACUGGAAUUCUCGGGUGCCAA: 0.403
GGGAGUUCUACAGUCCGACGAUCGACUCCAUAGAUUUGAAUUCUUUUCCGUAUGUGGGGAUGGUUGCUACUACCUCACCGCCAAGUCCUCCCCCAGCUGUUACCACAUGAGGGAAUACAAGGUGCUAGGUACCUGGAAUUCUCGGGUGCCAA: 0.246
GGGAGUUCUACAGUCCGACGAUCUAGGGUUUAGAUUAUUUGACAGAAGUGCCUCUUAUGCAGACUGCUUCCCUUUGGGUAGCUGUGAUCUGCAGUAAGUCUGGGGAGAACCUGAGUACACCACUACACGUUGGUGGAAUUCUCGGGUGCCAA: 0.161
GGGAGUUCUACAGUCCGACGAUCCCUUGGCCUCUCGAAGUGCUGGGAUUACAGGCGUGAGCCACCCGCCCGGCUAUCAGCACUGUUCUGAUUGCAGACGUUUCACAGCAUGUUUGGCUUUUGGUAAAUUCAAUUGGAAUUCUCGGGUGCCAA: 12.4
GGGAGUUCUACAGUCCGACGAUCACAAACAAAAAAAUGGCGUCAUGAAUAUGAACAGCAUUGUCAGAUGAAUUAGUUGAAGUGGUUUUUUUUUUGUUUUUUUUUUUUUUUUGUACUGUGUCCUCAAAUUUAAUUGGAAUUCUCGGGUGCCAA: 0.55

Sample 5
Target: Replicase polyprotein 1ab, nsp13 helicase (rep, Severe acute respiratory syndrome coronavirus 2, UniProt P0DTD1)
Mode: inhibitor
Concentration: 20 µM
Quantity: inhibition
CN(C)CCOC1=Cc2ccccc2Sc2ccc(Cl)cc21: 1.41%
CCOC(=O)CNC(=O)[C@@H]1CCCN1C(=O)Cc1ccccc1: 4.28%
Cc1cc(=O)[nH]c(=S)[nH]1: 3.88%
CCCC(=O)O[C@]1(C(=O)CO)CC[C@H]2[C@@H]3CCC4=CC(=O)CC[C@]4(C)[C@H]3[C@@H](O)C[C@@]21C: 10.4%
O=C(O)C[C@H]1CC[C@H](c2ccc(-c3ccc(Nc4ccc(C(F)(F)F)nc4)cn3)cc2)CC1: 5.38%
OC(Cc1ccncc1)C(Cl)(Cl)Cl (stereo not drawn): 5.97%
CCCC[C@H](C)C[C@H](O)/C=C/[C@H]1[C@H](O)CC(=O)[C@@H]1CCCC/C=C/C(=O)O: 0.08%
Cc1c[nH]c2ncnc(N3CCC(CN)(C(=O)Nc4cccc(OC(=O)N(C)C)c4)CC3)c12: 0.54%
CCCc1ncc(C[n+]2ccccc2C)c(N)n1: 0.3%
CN([C@@H](Cc1ccc(OS(=O)(=O)c2cccc3cnccc23)cc1)C(=O)N1CCN(c2ccccc2)CC1)S(=O)(=O)c1cccc2cnccc12: 0.83%
Cc1cccc(C)c1NC(=O)C1CCCCN1C (stereo not drawn): 1.19%
CC(=O)O[C@H]1Cc2ccccc2N(C(N)=O)c2ccccc21: 2.03%
Cn1ncnc1COc1nn2c(-c3c(F)cccc3F)nnc2cc1C1CCC1: -3.25%
Cc1c(N(C)CS(=O)(=O)O)c(=O)n(-c2ccccc2)n1C: 1.7%
NS(=O)(=O)c1ccc(C(=O)O)cc1: 0.21%
CCCCC[C@H](O)/C=C/[C@@H]1[C@@H](C/C=C\CCCC(=O)O)[C@H](O)C[C@H]1O: 11.9%
Cc1ccccc1-n1c(Cn2ncc3c(N)ncnc32)nc2cccc(C)c2c1=O: 1.21%
Cc1noc(NS(=O)(=O)c2cccc3c(N(C)C)cccc23)c1C: 2.73%
CC(=O)c1cc([N+](=O)[O-])c(Sc2ccc(F)cc2F)s1: 0.45%
COC(=O)[C@H](c1ccccc1Cl)N1CCc2sccc2C1: 0.68%
CCCCC/N=c1\ccn(Cc2ccccc2)c2ccccc12: 0.94%
Oc1ncnc2[nH]ncc12: -0.69%
COc1c(C)c(C(=O)c2ccc(N)c(C(=O)O)c2)n2ccccc12: 6.88%
CC(C)(C)NC[C@H](O)COc1nsnc1N1CCOCC1: 0.28%
Clc1ccccc1CN1CCc2sccc2C1: -4.47%

A few entries again (sample 1):
N=C(N)S/C=C\C(=O)O: 27.6%
O=C(Nc1cc(C(F)(F)F)ccc1O)Nc1cc(C(F)(F)F)ccc1O: 29%
O=C(CCl)c1ccccc1: 99.9%
CNS(=O)(=O)C[C@H]1CC[C@H](N(C)c2ncnc3[nH]ccc23)CC1: 54.1%
